{"data": "Assay results collected from several papers", "note": "Every numbered part comes from another study and shows a few of its results, in no order. “And” joins repeats or separate records; there may be more than shown.", "UniProt Q8TDC3, sequence (whole entry, looked up)": "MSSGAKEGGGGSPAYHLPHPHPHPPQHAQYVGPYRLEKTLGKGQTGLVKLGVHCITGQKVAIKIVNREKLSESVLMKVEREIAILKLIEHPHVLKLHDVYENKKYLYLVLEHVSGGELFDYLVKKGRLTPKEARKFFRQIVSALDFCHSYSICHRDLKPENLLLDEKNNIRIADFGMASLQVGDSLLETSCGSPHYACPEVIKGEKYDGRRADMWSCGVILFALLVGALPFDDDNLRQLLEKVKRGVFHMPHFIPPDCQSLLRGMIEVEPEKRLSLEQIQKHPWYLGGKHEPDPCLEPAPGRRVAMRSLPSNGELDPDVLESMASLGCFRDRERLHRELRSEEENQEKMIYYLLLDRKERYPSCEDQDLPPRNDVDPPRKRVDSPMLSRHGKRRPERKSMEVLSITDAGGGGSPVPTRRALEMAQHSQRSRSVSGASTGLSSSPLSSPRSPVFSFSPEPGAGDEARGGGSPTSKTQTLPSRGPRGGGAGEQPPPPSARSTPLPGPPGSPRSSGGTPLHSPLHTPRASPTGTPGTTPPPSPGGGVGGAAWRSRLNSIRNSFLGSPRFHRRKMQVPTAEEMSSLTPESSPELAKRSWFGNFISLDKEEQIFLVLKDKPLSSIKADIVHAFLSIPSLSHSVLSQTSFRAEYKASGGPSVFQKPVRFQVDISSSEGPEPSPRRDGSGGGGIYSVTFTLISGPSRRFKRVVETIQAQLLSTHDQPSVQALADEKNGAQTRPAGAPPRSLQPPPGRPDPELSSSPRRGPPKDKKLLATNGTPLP", "UniProt Q8WU08, sequence (whole entry, looked up)": "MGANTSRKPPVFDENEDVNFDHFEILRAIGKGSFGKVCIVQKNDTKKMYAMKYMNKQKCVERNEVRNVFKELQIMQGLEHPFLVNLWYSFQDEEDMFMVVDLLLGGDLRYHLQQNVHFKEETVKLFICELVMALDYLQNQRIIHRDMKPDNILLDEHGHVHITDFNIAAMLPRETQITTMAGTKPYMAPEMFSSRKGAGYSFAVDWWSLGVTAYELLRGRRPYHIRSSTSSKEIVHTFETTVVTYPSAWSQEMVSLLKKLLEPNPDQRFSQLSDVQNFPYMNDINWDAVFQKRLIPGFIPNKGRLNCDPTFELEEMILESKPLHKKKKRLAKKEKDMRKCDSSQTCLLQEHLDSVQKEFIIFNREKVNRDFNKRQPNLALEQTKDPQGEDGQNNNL", "UniProt O14730, sequence (whole entry, looked up)": "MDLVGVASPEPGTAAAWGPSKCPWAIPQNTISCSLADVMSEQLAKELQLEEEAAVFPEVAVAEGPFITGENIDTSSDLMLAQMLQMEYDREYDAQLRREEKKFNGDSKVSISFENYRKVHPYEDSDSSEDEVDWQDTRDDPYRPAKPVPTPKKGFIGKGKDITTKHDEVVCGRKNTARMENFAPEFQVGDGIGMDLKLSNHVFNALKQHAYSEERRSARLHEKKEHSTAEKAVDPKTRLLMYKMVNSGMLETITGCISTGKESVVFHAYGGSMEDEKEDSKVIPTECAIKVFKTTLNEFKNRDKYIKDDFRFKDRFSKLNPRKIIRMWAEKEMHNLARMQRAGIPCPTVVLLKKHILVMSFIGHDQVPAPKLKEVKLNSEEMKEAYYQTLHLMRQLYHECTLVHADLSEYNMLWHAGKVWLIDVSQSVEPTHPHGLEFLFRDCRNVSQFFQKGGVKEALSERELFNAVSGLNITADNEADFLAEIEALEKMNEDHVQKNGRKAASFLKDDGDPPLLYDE", "UniProt P09769, sequence (whole entry, looked up)": "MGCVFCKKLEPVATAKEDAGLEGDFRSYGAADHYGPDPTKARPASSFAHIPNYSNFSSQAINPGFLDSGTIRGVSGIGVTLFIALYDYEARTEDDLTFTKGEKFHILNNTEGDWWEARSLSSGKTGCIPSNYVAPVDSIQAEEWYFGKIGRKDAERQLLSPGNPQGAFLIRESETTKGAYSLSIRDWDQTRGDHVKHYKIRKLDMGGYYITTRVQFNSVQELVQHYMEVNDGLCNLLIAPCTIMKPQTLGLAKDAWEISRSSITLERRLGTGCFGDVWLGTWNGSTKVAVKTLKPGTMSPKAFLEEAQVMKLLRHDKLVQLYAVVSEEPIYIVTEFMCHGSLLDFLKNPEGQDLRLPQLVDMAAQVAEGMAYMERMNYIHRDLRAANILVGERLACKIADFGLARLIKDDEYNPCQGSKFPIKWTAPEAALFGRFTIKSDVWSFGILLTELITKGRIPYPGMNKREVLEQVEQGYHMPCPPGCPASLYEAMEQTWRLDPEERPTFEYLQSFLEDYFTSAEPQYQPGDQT", "UniProt P23458, sequence (whole entry, looked up)": "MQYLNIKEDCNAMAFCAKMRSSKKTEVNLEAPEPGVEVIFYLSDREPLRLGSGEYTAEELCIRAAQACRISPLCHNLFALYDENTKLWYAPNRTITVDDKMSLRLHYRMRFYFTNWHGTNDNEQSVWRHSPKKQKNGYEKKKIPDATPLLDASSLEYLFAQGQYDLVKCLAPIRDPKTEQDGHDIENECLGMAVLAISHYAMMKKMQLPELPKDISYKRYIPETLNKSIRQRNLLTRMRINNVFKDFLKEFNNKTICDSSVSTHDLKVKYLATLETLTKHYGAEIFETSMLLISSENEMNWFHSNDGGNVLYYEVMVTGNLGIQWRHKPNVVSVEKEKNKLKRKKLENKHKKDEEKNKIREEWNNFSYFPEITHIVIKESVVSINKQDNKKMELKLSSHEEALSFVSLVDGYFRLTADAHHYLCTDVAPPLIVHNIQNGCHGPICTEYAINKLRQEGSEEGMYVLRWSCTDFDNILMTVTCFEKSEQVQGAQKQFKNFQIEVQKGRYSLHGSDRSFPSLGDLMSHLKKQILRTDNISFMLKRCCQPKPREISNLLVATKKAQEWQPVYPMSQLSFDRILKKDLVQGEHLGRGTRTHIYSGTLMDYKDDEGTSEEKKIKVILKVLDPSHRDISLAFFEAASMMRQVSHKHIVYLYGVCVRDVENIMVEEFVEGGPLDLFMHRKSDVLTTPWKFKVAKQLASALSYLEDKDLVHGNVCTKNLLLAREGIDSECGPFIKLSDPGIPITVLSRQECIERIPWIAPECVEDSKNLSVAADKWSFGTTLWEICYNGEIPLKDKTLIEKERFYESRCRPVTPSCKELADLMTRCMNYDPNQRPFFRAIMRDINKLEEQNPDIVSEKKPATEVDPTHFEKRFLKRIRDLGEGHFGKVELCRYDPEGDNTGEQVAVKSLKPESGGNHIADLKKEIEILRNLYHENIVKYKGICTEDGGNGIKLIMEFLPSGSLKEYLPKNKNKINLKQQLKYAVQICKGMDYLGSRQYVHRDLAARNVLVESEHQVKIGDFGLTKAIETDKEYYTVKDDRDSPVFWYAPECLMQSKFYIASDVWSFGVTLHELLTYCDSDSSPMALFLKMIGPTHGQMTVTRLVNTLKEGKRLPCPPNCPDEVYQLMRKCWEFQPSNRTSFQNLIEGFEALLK", "UniProt Q12851, sequence (whole entry, looked up)": "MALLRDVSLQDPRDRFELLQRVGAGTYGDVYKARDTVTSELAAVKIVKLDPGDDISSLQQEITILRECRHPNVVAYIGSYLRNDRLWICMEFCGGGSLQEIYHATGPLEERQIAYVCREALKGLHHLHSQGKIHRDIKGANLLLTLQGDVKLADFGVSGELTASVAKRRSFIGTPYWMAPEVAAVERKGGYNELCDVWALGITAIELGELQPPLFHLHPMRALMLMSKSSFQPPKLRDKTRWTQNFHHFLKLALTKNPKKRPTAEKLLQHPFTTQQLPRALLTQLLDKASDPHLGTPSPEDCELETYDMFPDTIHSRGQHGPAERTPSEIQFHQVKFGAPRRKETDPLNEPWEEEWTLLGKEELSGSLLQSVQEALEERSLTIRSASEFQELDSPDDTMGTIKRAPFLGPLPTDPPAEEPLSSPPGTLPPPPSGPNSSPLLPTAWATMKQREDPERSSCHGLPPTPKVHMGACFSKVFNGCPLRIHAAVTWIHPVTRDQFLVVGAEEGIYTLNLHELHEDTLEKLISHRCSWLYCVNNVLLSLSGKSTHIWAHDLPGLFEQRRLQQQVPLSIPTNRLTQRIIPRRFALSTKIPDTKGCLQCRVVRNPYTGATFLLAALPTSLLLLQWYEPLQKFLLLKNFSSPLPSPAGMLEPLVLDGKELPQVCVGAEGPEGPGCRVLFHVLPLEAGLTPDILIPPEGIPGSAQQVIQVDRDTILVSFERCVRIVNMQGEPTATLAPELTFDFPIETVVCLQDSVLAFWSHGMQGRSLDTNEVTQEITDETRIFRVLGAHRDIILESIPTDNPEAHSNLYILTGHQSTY", "UniProt O00506, sequence (whole entry, looked up)": "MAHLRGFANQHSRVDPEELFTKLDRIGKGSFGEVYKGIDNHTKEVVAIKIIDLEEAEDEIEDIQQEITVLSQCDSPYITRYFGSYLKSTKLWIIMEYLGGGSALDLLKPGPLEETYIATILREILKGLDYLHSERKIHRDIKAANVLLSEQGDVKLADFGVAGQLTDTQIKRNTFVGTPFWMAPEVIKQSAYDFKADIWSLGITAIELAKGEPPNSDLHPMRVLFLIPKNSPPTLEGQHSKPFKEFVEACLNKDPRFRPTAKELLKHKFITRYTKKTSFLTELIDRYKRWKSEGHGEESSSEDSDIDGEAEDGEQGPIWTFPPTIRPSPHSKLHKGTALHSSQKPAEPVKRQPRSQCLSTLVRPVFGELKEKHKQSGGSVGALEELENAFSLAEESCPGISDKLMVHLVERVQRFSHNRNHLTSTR", "UniProt O75716, sequence (whole entry, looked up)": "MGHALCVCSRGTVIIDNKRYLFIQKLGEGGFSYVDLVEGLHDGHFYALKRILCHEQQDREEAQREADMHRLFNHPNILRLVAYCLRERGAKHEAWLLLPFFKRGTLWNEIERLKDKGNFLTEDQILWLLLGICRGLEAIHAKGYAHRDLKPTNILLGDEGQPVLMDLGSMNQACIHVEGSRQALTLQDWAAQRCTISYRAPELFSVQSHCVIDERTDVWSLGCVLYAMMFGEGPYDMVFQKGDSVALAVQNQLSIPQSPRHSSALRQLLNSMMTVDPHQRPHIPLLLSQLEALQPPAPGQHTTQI"}
{"data": "Study 1", "SMILES": "CC(C)C[C@@H]1NC(=O)[C@@H](N(C)C(=O)[C@H](CC2CCC2)NC(=O)[C@@H]2C[C@@H](F)CN2C(=O)C2(C(F)(F)F)CC(F)(F)C2)CCCCNC(=O)C2(CC2)NC(=O)[C@H](Cc2cc(Cl)ccc2Cl)N(C)C1=O", "cell line": "NCI-H446", "time": "5 days", "relative to": "DMSO"}
{"test": "cell counting", "conditions": "1.52 nM", "cell growth": "80.5% and 96.3%"}
{"test": "Vi-Cell counting", "conditions": "4.57 nM, added: Myt1 inhibitor 1000 nM", "cell growth": "61.8% and 42.6%"}
{"test": "cell counting", "conditions": "124 nM", "cell growth": "14.9% and 17.6%"}
{"test": "Vi-Cell counting", "conditions": "41.1 nM, added: Myt1 inhibitor 1000 nM", "cell growth": "34.9% and 22.1%"}
{"test": "cell counting", "conditions": "1.11 µM", "cell growth": "15.7% and 12.7%"}
{"test": "cell counting", "conditions": "371 nM", "cell growth": "14.2% and 12.8%"}
{"test": "cell counting", "conditions": "10 µM", "cell growth": "14.9% and 15.6%"}
{"data": "Study 2", "Compound": "O=C(Nc1cnn(-c2csc(C(=O)NC3COC3)c2)c1)Nc1c(F)cccc1Cl", "observed": "enzyme activity", "tested at": "5 µM"}
{"target": "STK25 (Homo sapiens, UniProt O00506)", "scale": "relative to: untreated control", "remaining activity [%]": 94.2}
{"target": "EPHA3 (Homo sapiens, UniProt P29320)", "scale": "relative to: untreated control", "remaining activity [%]": 95.4}
{"target": "BRSK2 (Homo sapiens, UniProt Q8IWQ3)", "scale": "relative to: untreated control", "remaining activity [%]": 98.8}
{"target": "DCLK1 (Homo sapiens, UniProt O15075)", "test": "inhibitor", "remaining activity [%]": 84.2}
{"target": "RPS6KA6 (Homo sapiens, UniProt Q9UK32)", "scale": "relative to: untreated control", "remaining activity [%]": 91.3}
{"target": "PAK1 (Homo sapiens, UniProt Q13153)", "scale": "relative to: untreated control", "remaining activity [%]": 76.1}
{"target": "EPHB1 (Homo sapiens, UniProt P54762)", "scale": "relative to: untreated control", "remaining activity [%]": 92.9}
{"target": "CDC42BPB (Homo sapiens, UniProt Q9Y5S2)", "scale": "relative to: untreated control", "remaining activity [%]": 84.4}
{"target": "MAP3K10 (Homo sapiens, UniProt Q02779)", "scale": "relative to: untreated control", "remaining activity [%]": 92.3}
{"data": "Study 3", "Structure (SMILES)": "O=C(N[C@H]1CCCCC/C=C\\C2C[C@@]2(C(=O)O)NC(=O)[C@@H]2C[C@@H](Oc3ccncc3)CN2C1=O)OC1CCCC1 (stereo partly drawn)", "tested at": "1 µM"}
{"target": "ACVRL1 (Homo sapiens, UniProt P37023)", "test": "binding, competition with immobilised ligand", "remaining binding": "84%"}
{"target": "STK16 (Homo sapiens, UniProt O75716)", "test": "binding, competition with immobilised ligand", "remaining binding": "79%"}
{"target": "Tyrosine-protein kinase JAK1, JH1 (JAK1, Homo sapiens, UniProt P23458)", "test": "binding, competition with immobilised ligand", "remaining binding": "96%"}
{"target": "FGR (Homo sapiens, UniProt P09769)", "test": "cell-free assay, competition with immobilised ligand", "remaining binding": "100%"}
{"target": "GRK3 (Homo sapiens, UniProt P35626)", "test": "binding, competition with immobilised ligand", "remaining binding": "100%"}
{"target": "RIOK3 (Homo sapiens, UniProt O14730)", "test": "binding, competition with immobilised ligand", "remaining binding": "100%"}
{"target": "Tyrosine-protein kinase ABL1, phosphorylated (ABL1, Homo sapiens, UniProt P00519)", "test": "binding, competition with immobilised ligand", "remaining binding": "97%"}
{"target": "SLK (Homo sapiens, UniProt Q9H2G2)", "test": "binding, competition with immobilised ligand", "remaining binding": "100%"}
{"target": "Tyrosine-protein kinase ABL1, non-phosphorylated (ABL1, Homo sapiens, UniProt P00519, H396P)", "test": "binding, competition with immobilised ligand", "remaining binding": "81%"}
{"target": "STK32A (Homo sapiens, UniProt Q8WU08)", "test": "binding, competition with immobilised ligand", "remaining binding": "89%"}
{"target": "PDGFRA (Homo sapiens, UniProt P16234)", "test": "cell-free assay, competition with immobilised ligand", "remaining binding": "99%"}
{"target": "Ribosomal protein S6 kinase alpha-2, N-terminal kinase domain (RPS6KA2, Homo sapiens, UniProt Q15349)", "test": "binding, competition with immobilised ligand", "remaining binding": "99%"}
{"target": "CAMK2B (Homo sapiens, UniProt Q13554)", "test": "binding, competition with immobilised ligand", "remaining binding": "99%"}
{"target": "MAP4K2 (Homo sapiens, UniProt Q12851)", "test": "binding, competition with immobilised ligand", "remaining binding": "100%"}
{"target": "MYLK (Homo sapiens, UniProt Q15746)", "test": "binding, competition with immobilised ligand", "remaining binding": "100%"}
{"target": "PIK3CA (Homo sapiens, UniProt P42336, C420R)", "test": "binding, competition with immobilised ligand", "remaining binding": "100%"}
{"target": "FLT3 (Homo sapiens, UniProt P36888, F691L/ITD)", "test": "binding, competition with immobilised ligand", "remaining binding": "88%"}
{"target": "CDC42BPG (Homo sapiens, UniProt Q6DT37)", "test": "competition binding", "remaining binding": "90%"}
{"target": "PRKCI (Homo sapiens, UniProt P41743)", "test": "cell-free assay, competition with immobilised ligand", "remaining binding": "100%"}
{"target": "BRSK1 (Homo sapiens, UniProt Q8TDC3)", "test": "binding, competition with immobilised ligand", "remaining binding": "80%"}
{"target": "PRKAA1 (Homo sapiens, UniProt Q13131)", "test": "cell-free assay, competition with immobilised ligand", "remaining binding": "100%"}
{"data": "Study 4", "cell line": "A-375", "tested at": "100 µM", "time": "18 h"}
{"SMILES": "OC[C@H]1O[C@@H](O[C@@H]2[C@@H](CO)OC(O)(CO)[C@H]2O)[C@H](O)[C@@H](O)[C@H]1O (mixture of isomers)", "viability [%]": 103}
{"SMILES": "O=c1cc(-c2ccc(O)c(O)c2)oc2cc(O)cc(O)c12", "viability [%]": 82.8}
{"SMILES": "CCCCC[C@H](O)/C=C/[C@H]1[C@H](O)CC(=O)[C@@H]1CCCCCCC(=O)O", "viability [%]": 99.5}
{"SMILES": "NC12CC3CC(CC(C3)C1)C2", "viability [%]": 104}
{"SMILES": "COc1cc2c(cc1O)CC[C@@H]1[C@@H]2CC[C@]2(C)[C@@H](O)CC[C@@H]12", "viability [%]": 65.7}
{"SMILES": "CN[C@@H]1[C@@H](O)[C@@H](O[C@@H]2[C@@H](O)[C@H](O[C@H]3OC(CN)=CC[C@H]3N)[C@@H](N)C[C@H]2N)OC[C@]1(C)O", "viability [%]": 94.6}
{"SMILES": "NCCCNCCSP(=O)(O)O", "viability [%]": 103}
{"SMILES": "c1ccc(CN(CC2=NCCN2)c2ccccc2)cc1", "viability [%]": 86.3}
{"note": "For quick reference, copied from above (study 1):"}
{"test": "cell counting", "conditions": "1.52 nM", "cell growth": "80.5% and 96.3%"}
{"test": "Vi-Cell counting", "conditions": "4.57 nM, added: Myt1 inhibitor 1000 nM", "cell growth": "61.8% and 42.6%"}
{"test": "cell counting", "conditions": "124 nM", "cell growth": "14.9% and 17.6%"}
{"test": "Vi-Cell counting", "conditions": "41.1 nM, added: Myt1 inhibitor 1000 nM", "cell growth": "34.9% and 22.1%"}
{"test": "cell counting", "conditions": "1.11 µM", "cell growth": "15.7% and 12.7%"}
{"test": "cell counting", "conditions": "371 nM", "cell growth": "14.2% and 12.8%"}
